Earlier results that unrelated publications cite.
Each numbered part shows a few of the values that one paper quotes. pIC50: −log10 of the molar value.

Study 1 — target: dopamine transporter
The pIC50 of `C[C@@H]1C[C@H]2[C@@H]3CCC4=CC(=O)C=C[C@]4(C)[C@@]3(F)[C@@H](O)C[C@]2(C)[C@@]1(O)C(=O)CO` is reported as < 5.00.
For `COc1ccc2c(c1)c(CC(=O)O)c(C)n2C(=O)c1ccc(Cl)cc1`, the pIC50 was < 5.00.
`CC(C)(C(=O)O)c1ccc(C(O)CCCN2CCC(C(O)(c3ccccc3)c3ccccc3)CC2)cc1` (stereo not drawn) gave a pIC50 of < 5.00.
For `CCCC(=O)Nc1ccc(OCC(O)CNC(C)C)c(C(C)=O)c1` (stereo not drawn), the pIC50 was < 5.00.

Study 2 — organism: Cryptosporidium parvum; read-out: parasite growth; method: high-throughput screen; concentration: concentration not given
`Cc1cnc(C(=O)NCCc2ccc(S(=O)(=O)NC(=O)NC3CCCCC3)cc2)cn1` — result for antiparasitic activity: “active”.
For `COc1ccc2c(c1)c(CC(=O)O)c(C)n2C(=O)c1ccc(Cl)cc1`, antiparasitic activity read “active”.
`COC(=O)C[C@](O)(CCCC(C)(C)O)C(=O)O[C@@H]1C(OC)=C[C@]23CCCN2CCc2cc4c(cc2[C@H]13)OCO4` — result for antiparasitic activity: “active”.
Under antiparasitic activity, `CC(=O)O[C@@]12CO[C@@H]1C[C@H](O)[C@@]1(C)C(=O)[C@H](O)C3=C(C)[C@@H](OC(=O)[C@H](O)[C@@H](NC(=O)OC(C)(C)C)c4ccccc4)C[C@@](O)([C@@H](OC(=O)c4ccccc4)[C@H]21)C3(C)C` is recorded as “active”.
For `CN(C)c1ccc(O)c2c1C[C@H]1C[C@H]3[C@H](N(C)C)C(O)=C(C(N)=O)C(=O)[C@@]3(O)C(O)=C1C2=O`, antiparasitic activity read “active”.
`Oc1c(Cl)cc(Cl)c(Cl)c1Cc1c(O)c(Cl)cc(Cl)c1Cl` — result for antiparasitic activity: “active”.
Under antiparasitic activity, `CC[C@H](C)C(=O)O[C@H]1CCC=C2C=C[C@H](C)[C@H](CC[C@@H]3C[C@@H](O)CC(=O)O3)[C@H]21` is recorded as “active”.
`[H]/N=C(/NCCCCC)N/N=C/c1c[nH]c2ccc(OC)cc12`: antiparasitic activity “active”.
`C[C@H]1O[C@@H](O[C@H]2[C@@H](O)C[C@H](O[C@H]3[C@@H](O)C[C@H](O[C@H]4CC[C@@]5(C)[C@H](CC[C@@H]6[C@@H]5C[C@@H](O)[C@]5(C)[C@@H](C7=CC(=O)OC7)CC[C@]65O)C4)O[C@@H]3C)O[C@@H]2C)C[C@H](O)[C@@H]1O` — result for antiparasitic activity: “active”.
`O=c1cnn([C@@H]2O[C@H](CO)[C@@H](O)[C@H]2O)c(=O)[nH]1`: antiparasitic activity “active”.
For `Oc1c(Cl)cc(Cl)c2cccnc12`, antiparasitic activity read “active”.
For `C[C@H]1c2cccc(O)c2C(=O)C2=C(O)[C@]3(O)C(=O)C(C(N)=O)=C(O)[C@@H](N(C)C)[C@@H]3[C@@H](O)[C@@H]21`, antiparasitic activity read “active”.

Study 3 — setting: kinase panel
SMILES: Cc1cc(Nc2nccc(C)n2)cc(-c2cnc([C@@]3(O)CC[C@H](C(=O)O)C(C)(C)C3)s2)c1
For FYN: pIC50 read 6.69.
For FER: pIC50 read 6.63.
For ZAP70: pIC50 read 7.62.

Other studies, line by line
Under “mRNA fold change”, `CN(C)CC/C=C1/c2ccccc2Sc2ccc(Cl)cc21` is recorded as 4.22 (MCF7; microarray, item: BHLHE40; concentration not given; relative to: DMSO).
`C=C(C)[C@@H]1CC[C@]2(C)CC[C@]3(C)[C@H](CC[C@@H]4[C@@]5(C)CC[C@H](O)C(C)(C)[C@@H]5CC[C@]43C)[C@@H]12` has a pIC50 of 4.23 (rat CYP1A2; inhibitor; rat liver microsomes).
`CCCCCCCCNC(C)C(O)c1ccc(SC(C)C)cc1` (stereo not drawn): “mRNA fold change” 1.7 (MCF7; microarray, item: BTG1; concentration not given; relative to: DMSO).
`CS(=O)(=O)CCNCc1ccc(-c2ccc3ncnc(Nc4ccc(OCc5cccc(F)c5)c(Cl)c4)c3c2)o1` gave an AUC(tau) of 36200 ng·h/mL (human, plasma; 1250 mg/day, steady state).
`O=C(O[C@@H]1COC(=O)c2cc(O)c(O)c(O)c2-c2c(cc(O)c(O)c2O)C(=O)O[C@H]1[C@@H]1OC(=O)c2cc(O)c(O)c(O)c2-c2c(O)c(O)c(O)c3c2C(=O)O[C@H]1[C@@H]3O)c1cc(O)c(O)c(O)c1` gave an IC50 of > 37.5 µg/mL (normal lymphocytes; cytotoxicity).
